Results pooled from the literature.
Every numbered part comes from another study and shows a few of its results, in no order. Positions count from the first letter of the parent shown.

Block 1
Target: CCND1, cyclin fold, Cln2 fusion (human)
Technique: yeast growth competition, sequencing
Matrix: yeast
Notes: strong parent motif
Baseline: not given
Direction: higher = stronger binding
Starting sequence: CDKN1A docking peptide (human); SKACRRLFGPVDS; partner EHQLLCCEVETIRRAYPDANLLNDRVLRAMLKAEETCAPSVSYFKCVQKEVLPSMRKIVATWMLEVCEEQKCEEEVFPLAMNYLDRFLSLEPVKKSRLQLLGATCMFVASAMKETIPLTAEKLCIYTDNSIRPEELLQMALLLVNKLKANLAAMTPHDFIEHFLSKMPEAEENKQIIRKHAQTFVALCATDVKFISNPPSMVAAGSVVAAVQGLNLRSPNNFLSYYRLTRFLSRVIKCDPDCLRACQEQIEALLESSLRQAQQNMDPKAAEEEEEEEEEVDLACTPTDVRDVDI
Variant	normalised enrichment score
SKACRRLFDPVDS [G9D]	3.75
SKACRRLVGPVDS [F8V]	0.214
SKACRALFGPVDS [R6A]	1.61
SKACRRLFGPVQS [D12Q]	1.61
SKACRSLFGPVDS [R6S]	0.887
SKACRRLFTPVDS [G9T]	2.65
SKACRRLFGPVGS [D12G]	1.76
SAACRRLFGPVDS [K2A]	2.21
SKAHRRLFGPVDS [C4H]	0.451
SKACRRLIGPVDS [F8I]	0.213
SKACRRLCGPVDS [F8C]	0.197
SKACRKLFGPVDS [R6K]	2.81
SKACRRLFGAVDS [P10A]	2.03
SKACARAFGPVDS [R5A L7A]	-0.0502
SKACRRLFLPVDS [G9L]	2.33
SKACRRCFGPVDS [L7C]	0.218
SKACRRLFGEVDS [P10E]	3.91
SKACRRLFGPDDS [V11D]	5.78
SKACRRLFIPVDS [G9I]	2.38
SKACRRLFWPVDS [G9W]	2.88
SKACRNLFGPVDS [R6N]	1.54
SKACRRLKGPVDS [F8K]	-0.0401
SKACRRLQGPVDS [F8Q]	-0.0672

Block 2
Target: Interferon regulatory factor 5, full length, phosphomimetic (IRF5, Homo sapiens, UniProt Q13568-2, residues 1-514, K96S/S451D/S453D/S456D/S462D)
Technique: protein-binding microarray
Molecule type: double-stranded DNA, one strand shown
Matrix: in vitro
Concentration: 250 nM
Notes: 60-bp whole probe
Added: salmon DNA 0.4 mg/ml
Baseline: random background probes
Direction: higher = stronger binding
Shared flanks, not repeated: GCCTAGCAC … GTCTTGATTCGCTTGACGCTGCTG
Oligonucleotide	log fluorescence
TTAGATCTCAGACTTGATTAGTGCTAG	-0.119 z-score
TCATATATGACAATGATACTGTGCTAG	0.675 z-score
GACGGACTGGGGTAGCGGGACGTGCTA	-0.476 z-score
GACGCTTTCGGTTCCGGGACGTGCTAG	9.65 z-score
GACGGTCTCGGTTACGGGACGTGCTAG	0.186 z-score
GACGATTTCGGTCTCGGGACGTGCTAG	6.48 z-score
TCATCTCCCCCATCTTGTACTGTGCTA	-0.0905 z-score
GACGGTTCCCTTTTCCAGACGTGCTAG	0.345 z-score
TTAGGTCTCCTACTGCTTCAGTGCTAG	-0.285 z-score
TCATGACACCGATTTCATACTGTGCTA	0.401 z-score
TTAGGACTGTGTTTCGGTTAGTGCTAG	8.07 z-score
GACGAACTGGGGTTTTGAGACGTGCTA	-0.286 z-score
TTAGGACTGGACTATCGGTGAGTGCTA	2.72 z-score
TTAGGACTGCTTTTCCTATAGTGCTAG	0.318 z-score
CATCATTGCCTGTTTTTCCCCGTGCTA	0.556 z-score
CACTCCACCTCTGTGCTCTTGTGCTAG	-0.062 z-score
TTAGGTTCCCTTTTACTTTAGTGCTAG	0.805 z-score
TCATGCTTGTGTCTGGGACTGTGCTAG	-0.414 z-score
GACGGACTGGACTATTGGGACGTGCTA	-0.38 z-score

Block 3
Target: Centromere-binding protein 1, full length, N-terminal tag (CBF1, Saccharomyces cerevisiae, UniProt P17106, residues 1-351)
Chain of UniProt P17106 (whole entry, looked up): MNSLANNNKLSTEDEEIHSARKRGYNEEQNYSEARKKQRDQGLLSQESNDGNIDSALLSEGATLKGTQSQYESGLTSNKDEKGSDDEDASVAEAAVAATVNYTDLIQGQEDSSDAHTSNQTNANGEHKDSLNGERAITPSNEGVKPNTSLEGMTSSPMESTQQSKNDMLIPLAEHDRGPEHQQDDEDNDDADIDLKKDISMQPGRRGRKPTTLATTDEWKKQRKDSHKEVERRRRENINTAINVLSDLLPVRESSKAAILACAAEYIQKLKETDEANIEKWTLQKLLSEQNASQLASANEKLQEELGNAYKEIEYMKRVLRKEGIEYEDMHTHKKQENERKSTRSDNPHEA
Technique: protein-binding microarray
Molecule type: double-stranded DNA, one strand shown
Matrix: in vitro
Concentration: 0.8 µM
Notes: whole 60-bp probe, no competitor
Direction: higher = stronger binding
Shared flanks, not repeated: … GTCTTGATTCGCTTGACGCTGCTG
Oligonucleotide	fluorescence intensity [a.u.]
CTATACTATTTGTCTCCCACGTGCTGCATTGTCTTC	6170
GAATATACACATTAGAGCATGACGATGAGTACTTAG	575
GAAAGGCTCTACACCCACGAGCAATCGCCTTTTTAG	502
TGTACGAAGCTATGTGGTGACAGTATAGTAGTTAGG	520
CTATCTCCACTCTTTCTCCACGTGGCTTTGCTTTTC	3080
CCTAACTACTATAACCGCATCACATAGCTTCGTACA	556
CTAAGACAACTTTACATCAGCCTTCATATTTTTTTC	522
CTAAGATTGAAATCCTCCGTGATTTGCTCCGGATTC	513
GAATGTAGCTGACTACACGTTTCAAACCCAATCTAG	579
CTAAAATATGTATTAATGGTGGTGCCTGTCAGGTTC	498
CTATATAATATTCACATGGTGCTCTACCGTTTTTTC	726
CTATAGAGTATAAATTGGGTGATGCTACACTAATTC	521
GAAGTGGTTTCATGTGACGTGGAGTCATGTAGGTAG	2360
CTACGATATGCCCGGAACGTGCTTCCCATTGGTTTC	798
CTACAAAAGGCAGCGCACGCACTATTTCCCTTTTTC	524
GAAGGAAAGATTACCCACCTGATATGCGTTAATTAG	677
GAACTATAATATTGTTGCGTGACAGCAAGTCTTTAG	763
CCTAACTACTATAGGCACGTGCGATAGCTTCGTACA	9970
GAAAAAAGAACAGGTGACTCCGTTTTCAAAATATAG	2760

Block 4
Target: RNA binding protein fox-1 homolog 2, RRM domain, GST-SBP tag (RBFOX2, Homo sapiens, UniProt O43251-10, residues 100-194)
Technique: RNA Bind-n-Seq
Molecule type: RNA
Matrix: in vitro
Concentration: 365 nM
Notes: natural RNA segment, single round, ends assumed
Baseline: no-protein control
Direction: higher = stronger binding
Shared flanks, not repeated: GGGAGUUCUACAGUCCGACGAUC … UGGAAUUCUCGGGUGCCAA
Residues (chain): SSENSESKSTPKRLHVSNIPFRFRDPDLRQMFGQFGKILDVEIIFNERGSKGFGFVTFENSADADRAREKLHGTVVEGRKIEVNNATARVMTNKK
Oligonucleotide	RBNS enrichment (R)
GGUCAACACUUCCUGCUGCAUUUCCUUCCCUUUGCACAGCUUGAAGAAAUAGAGUAGACAGAAUCACACAUCAUGUGGUGGGCAGAUGGAAAUAAGUACCUGUGGUGAAC	0.903
AGUUUCAGAAUUGCUGGGAAAGUUACCCCACUGGUGGGUGAGGAUCUAUCCUCAACCUACAUCCAGAUCCUAUGUGCUGCUUGCACAGAGGCCUUUGGCUUUUGACCCAG	0.258
ACAUCAUUAAAGAUCUAAAUACAAAGGAUAUACAGUCUUGAAUCUAAAAUAAUUUGCUAACUAACUAUUUUGAUUCUUCAGAGAGAACUACUAAUAAAAAUCUAAAAGGU	0.416
AAUUAUAAUUUUCAGUUUCUCCCCAUGAAGCGCUCUCGUCUGACAUUUGUUUGGAAUCGUGCCACUGCUGGUCUGCGCCAGAUGUACCGUCCUUUCCAAUACGAUUUUCU	0.248
AUUGACUUCCCAAAUUUGUGUUUUUAAGAAGGCUUUGCUGCAAGCUACCAUUCCCAAUGGGGCAGUCAACUCUGAGAAUAUUACAAGCCAUCUUUAUUGCCAAAACCAGC	0.497
UUCCUGGCUGGCACCUGGUGUUGAUUCGCGGAGUUUGGGGACAGAUUCUAUUUCCCCACACCUGUUCCUUUUCUCGGUUUGCUGAGGGCCUCUUGGAUCCACUGGCCCAG	0.476
AGGUACCCACGCCACAGGCCUCAGGAUGGCUUUUUGUCUGAGGGCCUCAUUAGGCCCAGACUGCUGCUGCUGGUACCAGUCUCCUGAGACACUGCCUCCCUGGAGCCCAU	0.337
UGGACCCACAGCCCUGACUUCACCUAGAAGACUGAAGCCUCCCCCUCCAACUCCCAUGCUGUGCGUGUCCCUCUGAGAACCAACUGAGGCUAGAACCCUAGGGUCCCUGC	0.451

Repeated from above (block 3):
Oligonucleotide	fluorescence intensity [a.u.]
CTATACTATTTGTCTCCCACGTGCTGCATTGTCTTC	6170
CCTAACTACTATAGGCACGTGCGATAGCTTCGTACA	9970
CTAAGACAACTTTACATCAGCCTTCATATTTTTTTC	522
CTAAAATATGTATTAATGGTGGTGCCTGTCAGGTTC	498
GAAAAAAGAACAGGTGACTCCGTTTTCAAAATATAG	2760
CTAAGATTGAAATCCTCCGTGATTTGCTCCGGATTC	513
CTATATAATATTCACATGGTGCTCTACCGTTTTTTC	726
GAAGTGGTTTCATGTGACGTGGAGTCATGTAGGTAG	2360
GAAGGAAAGATTACCCACCTGATATGCGTTAATTAG	677
GAAAGGCTCTACACCCACGAGCAATCGCCTTTTTAG	502
GAACTATAATATTGTTGCGTGACAGCAAGTCTTTAG	763
GAATATACACATTAGAGCATGACGATGAGTACTTAG	575
